Experimental data from different studies.
“And” joins repeats or separate records; there may be more than shown. Numbers after ± are the reported error.
CYP2C19: Cytochrome P450 2C19 (CYP2C19, Homo sapiens, UniProt P33261)
ABCB1: ATP-dependent translocase ABCB1 (ABCB1, Homo sapiens, UniProt P08183)
Sequence of UniProt P08183 (whole entry, looked up): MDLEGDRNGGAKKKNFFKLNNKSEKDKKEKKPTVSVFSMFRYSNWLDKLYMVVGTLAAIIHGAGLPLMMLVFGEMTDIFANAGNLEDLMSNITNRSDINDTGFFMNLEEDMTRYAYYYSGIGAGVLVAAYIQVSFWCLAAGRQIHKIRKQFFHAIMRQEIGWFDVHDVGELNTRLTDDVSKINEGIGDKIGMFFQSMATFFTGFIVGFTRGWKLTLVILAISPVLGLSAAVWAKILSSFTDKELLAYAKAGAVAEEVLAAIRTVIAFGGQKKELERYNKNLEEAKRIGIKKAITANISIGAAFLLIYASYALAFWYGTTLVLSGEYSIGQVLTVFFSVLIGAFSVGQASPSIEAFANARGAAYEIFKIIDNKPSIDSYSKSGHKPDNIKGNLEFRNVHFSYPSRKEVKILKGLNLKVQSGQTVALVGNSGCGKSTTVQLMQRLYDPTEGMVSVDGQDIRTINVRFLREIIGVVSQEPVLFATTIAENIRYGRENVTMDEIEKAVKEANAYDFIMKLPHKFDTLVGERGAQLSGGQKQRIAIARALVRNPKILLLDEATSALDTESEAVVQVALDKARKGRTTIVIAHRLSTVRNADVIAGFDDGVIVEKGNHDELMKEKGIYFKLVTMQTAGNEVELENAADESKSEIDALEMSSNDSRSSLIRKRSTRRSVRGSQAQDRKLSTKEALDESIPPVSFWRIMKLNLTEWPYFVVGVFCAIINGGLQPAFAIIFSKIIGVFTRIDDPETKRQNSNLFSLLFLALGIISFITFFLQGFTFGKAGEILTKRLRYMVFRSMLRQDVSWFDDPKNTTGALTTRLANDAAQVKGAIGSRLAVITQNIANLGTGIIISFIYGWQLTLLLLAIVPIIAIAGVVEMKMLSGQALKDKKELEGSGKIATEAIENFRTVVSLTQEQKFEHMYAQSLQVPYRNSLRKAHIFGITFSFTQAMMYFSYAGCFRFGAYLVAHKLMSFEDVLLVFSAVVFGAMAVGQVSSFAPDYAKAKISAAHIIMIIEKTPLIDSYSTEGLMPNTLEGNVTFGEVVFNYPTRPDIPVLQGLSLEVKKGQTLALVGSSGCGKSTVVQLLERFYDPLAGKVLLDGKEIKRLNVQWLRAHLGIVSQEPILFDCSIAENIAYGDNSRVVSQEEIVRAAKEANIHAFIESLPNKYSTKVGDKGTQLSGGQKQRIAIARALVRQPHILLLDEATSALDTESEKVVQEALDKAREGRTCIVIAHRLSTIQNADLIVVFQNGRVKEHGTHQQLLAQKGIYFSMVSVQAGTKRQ
DPP4: Dipeptidyl peptidase 4 (DPP4, Homo sapiens, UniProt P27487)
Sequence of UniProt P27487 (whole entry, looked up): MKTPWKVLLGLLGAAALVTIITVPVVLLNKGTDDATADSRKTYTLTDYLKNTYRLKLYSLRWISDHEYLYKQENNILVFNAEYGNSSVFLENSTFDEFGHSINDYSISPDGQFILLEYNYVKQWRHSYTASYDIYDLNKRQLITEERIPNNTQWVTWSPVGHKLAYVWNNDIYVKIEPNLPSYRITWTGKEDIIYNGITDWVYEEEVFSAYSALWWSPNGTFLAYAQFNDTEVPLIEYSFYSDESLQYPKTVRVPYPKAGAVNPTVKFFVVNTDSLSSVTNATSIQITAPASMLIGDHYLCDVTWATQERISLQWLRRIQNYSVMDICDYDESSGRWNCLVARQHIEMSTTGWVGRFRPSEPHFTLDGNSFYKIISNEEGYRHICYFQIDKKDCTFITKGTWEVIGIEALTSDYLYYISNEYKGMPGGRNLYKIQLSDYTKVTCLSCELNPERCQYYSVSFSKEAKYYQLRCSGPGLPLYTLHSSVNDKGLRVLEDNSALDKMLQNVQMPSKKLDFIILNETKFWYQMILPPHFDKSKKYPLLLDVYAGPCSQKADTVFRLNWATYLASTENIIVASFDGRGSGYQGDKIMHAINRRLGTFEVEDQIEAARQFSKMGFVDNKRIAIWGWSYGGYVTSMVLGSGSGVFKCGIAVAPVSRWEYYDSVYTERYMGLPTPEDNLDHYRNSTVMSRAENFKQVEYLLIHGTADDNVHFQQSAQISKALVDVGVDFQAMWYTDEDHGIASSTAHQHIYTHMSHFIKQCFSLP
Sequence of UniProt Q9Y616 (whole entry, looked up): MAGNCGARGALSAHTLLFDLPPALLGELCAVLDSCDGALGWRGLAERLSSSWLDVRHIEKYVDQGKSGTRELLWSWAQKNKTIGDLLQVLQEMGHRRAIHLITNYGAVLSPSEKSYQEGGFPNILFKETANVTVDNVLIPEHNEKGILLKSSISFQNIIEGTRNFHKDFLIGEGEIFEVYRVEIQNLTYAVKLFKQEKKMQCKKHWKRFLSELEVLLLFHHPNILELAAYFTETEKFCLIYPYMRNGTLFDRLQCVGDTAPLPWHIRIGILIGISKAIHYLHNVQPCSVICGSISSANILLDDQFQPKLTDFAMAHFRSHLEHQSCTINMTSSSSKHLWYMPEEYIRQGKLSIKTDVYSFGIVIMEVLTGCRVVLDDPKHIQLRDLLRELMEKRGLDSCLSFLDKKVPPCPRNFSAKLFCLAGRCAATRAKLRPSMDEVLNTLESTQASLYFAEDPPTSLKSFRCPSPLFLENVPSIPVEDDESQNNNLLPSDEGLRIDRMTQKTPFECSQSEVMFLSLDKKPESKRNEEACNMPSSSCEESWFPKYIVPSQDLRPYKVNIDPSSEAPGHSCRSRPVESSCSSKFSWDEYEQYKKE
Sequence of UniProt P11712 (whole entry, looked up): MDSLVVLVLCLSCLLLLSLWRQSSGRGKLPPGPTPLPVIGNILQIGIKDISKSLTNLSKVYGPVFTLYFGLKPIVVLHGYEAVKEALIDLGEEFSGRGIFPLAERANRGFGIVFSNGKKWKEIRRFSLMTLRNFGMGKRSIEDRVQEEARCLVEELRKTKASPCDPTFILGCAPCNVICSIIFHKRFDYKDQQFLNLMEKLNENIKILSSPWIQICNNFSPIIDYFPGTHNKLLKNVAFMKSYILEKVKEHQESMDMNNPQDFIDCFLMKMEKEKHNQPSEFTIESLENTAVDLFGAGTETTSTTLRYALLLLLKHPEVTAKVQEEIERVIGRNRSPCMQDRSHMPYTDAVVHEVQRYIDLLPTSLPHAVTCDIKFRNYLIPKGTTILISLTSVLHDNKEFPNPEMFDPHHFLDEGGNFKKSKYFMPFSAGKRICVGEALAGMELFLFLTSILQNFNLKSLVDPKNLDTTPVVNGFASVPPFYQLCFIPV
Sequence of UniProt Q86VL8 (whole entry, looked up): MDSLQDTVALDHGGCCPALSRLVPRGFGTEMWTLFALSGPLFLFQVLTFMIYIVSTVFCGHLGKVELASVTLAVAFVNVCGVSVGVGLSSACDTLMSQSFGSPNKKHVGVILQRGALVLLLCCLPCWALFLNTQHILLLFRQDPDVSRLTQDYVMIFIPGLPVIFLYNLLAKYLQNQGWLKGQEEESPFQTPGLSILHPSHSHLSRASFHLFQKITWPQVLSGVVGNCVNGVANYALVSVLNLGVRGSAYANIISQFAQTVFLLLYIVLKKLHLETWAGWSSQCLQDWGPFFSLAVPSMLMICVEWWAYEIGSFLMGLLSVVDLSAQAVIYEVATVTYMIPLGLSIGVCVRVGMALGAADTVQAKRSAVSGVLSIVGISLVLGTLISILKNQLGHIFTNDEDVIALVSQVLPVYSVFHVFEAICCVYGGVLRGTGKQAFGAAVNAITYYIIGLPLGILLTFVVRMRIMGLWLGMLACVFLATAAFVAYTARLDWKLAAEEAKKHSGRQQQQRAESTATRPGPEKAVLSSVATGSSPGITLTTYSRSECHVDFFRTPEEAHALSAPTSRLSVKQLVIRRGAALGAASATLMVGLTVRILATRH
Sequence of UniProt P11509 (whole entry, looked up): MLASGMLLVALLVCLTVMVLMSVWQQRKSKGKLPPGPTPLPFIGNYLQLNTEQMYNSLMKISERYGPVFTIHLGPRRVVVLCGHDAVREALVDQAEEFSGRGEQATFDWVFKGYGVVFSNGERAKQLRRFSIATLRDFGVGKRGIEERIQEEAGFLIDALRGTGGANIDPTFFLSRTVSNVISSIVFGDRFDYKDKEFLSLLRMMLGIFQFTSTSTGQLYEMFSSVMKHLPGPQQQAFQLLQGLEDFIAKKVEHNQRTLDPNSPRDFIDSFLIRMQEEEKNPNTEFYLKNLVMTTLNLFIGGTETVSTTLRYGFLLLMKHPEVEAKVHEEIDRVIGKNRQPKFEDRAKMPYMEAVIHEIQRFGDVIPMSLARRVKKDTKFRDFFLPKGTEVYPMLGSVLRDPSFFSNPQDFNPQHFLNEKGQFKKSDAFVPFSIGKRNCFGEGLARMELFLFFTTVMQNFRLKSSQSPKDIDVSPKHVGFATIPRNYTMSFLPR
Sequence of UniProt Q9Y243 (whole entry, looked up): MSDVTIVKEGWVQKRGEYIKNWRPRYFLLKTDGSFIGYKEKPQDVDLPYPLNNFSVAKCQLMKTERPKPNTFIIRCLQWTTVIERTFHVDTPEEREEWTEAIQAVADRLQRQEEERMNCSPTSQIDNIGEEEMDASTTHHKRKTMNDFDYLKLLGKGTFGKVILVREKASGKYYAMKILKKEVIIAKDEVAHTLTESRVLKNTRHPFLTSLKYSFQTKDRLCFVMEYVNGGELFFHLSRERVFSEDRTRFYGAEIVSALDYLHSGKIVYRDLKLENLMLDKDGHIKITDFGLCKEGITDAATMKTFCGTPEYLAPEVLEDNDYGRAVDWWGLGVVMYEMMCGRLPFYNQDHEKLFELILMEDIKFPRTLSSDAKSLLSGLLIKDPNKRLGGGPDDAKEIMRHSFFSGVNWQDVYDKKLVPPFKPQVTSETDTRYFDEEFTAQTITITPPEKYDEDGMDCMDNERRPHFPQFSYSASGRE

For `N#Cc1c(Cl)ccc2c1C1(CCN(C(=O)c3cnc4[nH]ncc4c3)CC1)C(=O)N2CC(=O)NCC(F)(F)F`, the IC50 was 6 µM (Cytochrome P450 2C9 (CYP2C9, Homo sapiens, UniProt P11712); enzyme activity, inhibitor).
With `CN[C@@H]1[C@H](O)[C@H](NC)[C@H]2O[C@]3(O)[C@H](O[C@@H]2[C@H]1O)O[C@H](C)C[C@H]3NC(=O)Cc1cc(Cl)ccn1` the inhibition was 6% (CYP2C19; 10 µM).
`CNC(=O)C1OC(n2cnc3c(NCc4cccc(I)c4)ncnc32)C(O)C1O` (stereo not drawn) has an inhibition of 66.5% (ABCB1; transport, inhibitor; 100 µM, 5 (unit not given), pH 7, together with: NMN).
`CC[C@H](C)[C@H](NC(=O)[C@H](Cc1ccccc1)NC(=O)[C@H](CCC(=O)O)NC(=O)[C@H](CCCCN)NC(=O)[C@H](C)NC(=O)[C@H](C)NC(=O)[C@H](CCC(N)=O)NC(=O)CNC(=O)[C@H](CCC(=O)O)NC(=O)[C@H](CC(C)C)NC(=O)[C@H](Cc1ccc(O)cc1)NC(=O)[C@H](CO)NC(=O)[C@H](CO)NC(=O)[C@@H](NC(=O)[C@H](CC(=O)O)NC(=O)[C@H](CO)NC(=O)[C@@H](NC(=O)[C@H](Cc1ccccc1)NC(=O)[C@@H](NC(=O)CNC(=O)[C@H](CCC(=O)O)NC(=O)[C@H](C)NC(=O)[C@@H](N)Cc1c[nH]cn1)[C@@H](C)O)[C@@H](C)O)C(C)C)C(=O)N[C@@H](C)C(=O)N[C@@H](Cc1c[nH]c2ccccc12)C(=O)N[C@@H](CC(C)C)C(=O)N[C@H](C(=O)N[C@@H](CCCCN)C(=O)NCC(=O)N[C@@H](CCCNC(=N)N)C(=O)NCC(=O)N[C@@H](Cc1ccccc1)C(=O)N[C@@H](Cc1ccccc1)C(=O)NCC(=O)O)C(C)C` gave a remaining peptide of ~85% (DPP-4 (recombinant); substrate, LC-MS; 500 µM, 24 h).
`COc1ccccc1-c1n[nH]c2nc(N[C@H]3CC[C@H](NS(=O)(=O)CC(C)C)CC3)ncc12` — result for “relative captured amount”: 1.28 (LINJ.27.0510; bead competition pull-down; Leishmania extract; 5 µM; relative to: vehicle).
With `CSc1nc2[nH]nc([N+](=O)[O-])c(=O)n2n1` the inhibition was 30.3% (SLC47A2 (Homo sapiens, UniProt Q86VL8); transport, inhibitor; transiently transfected cells; 100 µM, 10 (unit not given), together with: thiamine).
`COc1ccccc1-c1n[nH]c2nc(NC3CCN(C(=O)Cc4ccc(F)cc4F)CC3)ncc12`: “relative captured amount” 0.78 and 0.42 (Leishmania CRK3 LINJ.36.0600; bead competition pull-down; Leishmania donovani extract; 10 µM; relative to: vehicle).
The log TGI of `CC(C)(C)C(=O)OCOP(=O)(OCOC(=O)C(C)(C)C)C1CCCN(O)C1=O` (stereo not drawn) is reported as -5.09 log M (TK-10).
`CC(=O)NCCCC[C@@H]1NC(=O)[C@H](Cc2c[nH]c3c(C)cccc23)NC(=O)[C@H]([C@@H](C)O)NC(=O)[C@H](CC(N)=O)NC(=O)[C@@H](NC(C)=O)C(C)(C)SSC(C)(C)[C@@H](C(=O)N[C@@H](Cc2ccc(OCCN)cc2)C(=O)N[C@@H](Cc2ccc3ccccc3c2)C(=O)NC2(C(=O)N[C@@H](CCC(=O)O)C(=O)N[C@@H](CC(N)=O)C(=O)N[C@@H](Cc3cccnc3)C(=O)N(C)CC(N)=O)CCOCC2)NC1=O` gave an efflux ratio of 16.2 (ABCB1; transport, inhibitor; LLC-PK1 expressing MDR1; 10 µM, 90 min, together with: [3H]digoxin).
For `CC[C@H](C)[C@H](NC(=O)[C@H](Cc1ccccc1)NC(=O)[C@H](CCC(=O)O)NC(=O)[C@H](CCCCN)NC(=O)[C@H](C)NC(=O)[C@H](C)NC(=O)[C@H](CCC(N)=O)NC(=O)CNC(=O)[C@H](CCC(=O)O)NC(=O)[C@H](CC(C)C)NC(=O)[C@H](Cc1ccc(O)cc1)NC(=O)[C@H](CO)NC(=O)[C@H](CO)NC(=O)[C@@H](NC(=O)[C@H](CC(=O)O)NC(=O)[C@H](CO)NC(=O)[C@@H](NC(=O)[C@H](Cc1ccccc1)NC(=O)[C@@H](NC(=O)CNC(=O)[C@H](CCC(=O)O)NC(=O)C(C)(C)NC(=O)N(N)Cc1c[nH]cn1)[C@@H](C)O)[C@@H](C)O)C(C)C)C(=O)N[C@@H](C)C(=O)N[C@@H](Cc1c[nH]c2ccccc12)C(=O)N[C@@H](CC(C)C)C(=O)N[C@H](C(=O)N[C@@H](CCCNC(=N)N)C(=O)NCC(=O)N[C@@H](CCCNC(=N)N)C(=O)NCC(=O)O)C(C)C`, the remaining peptide was 100% (DPP4; HPLC-UV; Tris-HCl; 0.1 mM, 4 h, pH 7.4, 37 °C, together with: DPP4 16 nM).
`CN(C)[C@H]1C[C@@]23CC[C@@]4(O2)C(=CC[C@]2(C)[C@@H](c5ccc6ccncc6c5)CC[C@H]24)C=C3[C@@H](O)[C@@H]1O` gave an inhibition of 20.3% (IRAK3 (Homo sapiens, UniProt Q9Y616); ATP probe labelling, inhibitor, KiNativ profiling; 1 µM).
With `C[C@@H](c1ccc2nccn2c1)n1nnc2ncc(-c3cn[nH]c3)nc21` the time-dependent inhibition was < 20% (Cytochrome P450 2C8 (CYP2C8, Homo sapiens, UniProt P10632); human liver microsomes; 10 and 50 µM, 30 min preincubation, together with: ± NADPH).
The percent cleaved of `CSCC[C@H](NC(=O)[C@@H](NC(=O)[C@H](CC(C)C)NC(=O)[C@@H](NC(=O)[C@H](Cc1c[nH]cn1)NC(=O)CCCCCNC(=O)C1CC2C=CC1C2)C(C)C)C(C)C)C(=O)N[C@@H](CO)C(=O)N[C@@H](C)C(=O)N[C@H](C(=O)NCC(=O)N[C@@H](CCC(=O)O)C(=O)N[C@@H](CCCNC(=N)N)C(=O)N[C@@H](CC(=O)O)C(=O)NCC(=O)N[C@@H](CO)C(N)=O)[C@@H](C)O` (stereo partly drawn) is reported as 65% (pepsin; cleavage, substrate, HPLC; aqueous HCl; 200 µM, 1.667 h, pH 2, 37 °C, together with: pepsin 0.2 µM).
`CS(C)(=O)=Nc1ccc(-c2ccc(-c3nc4cc(O[C@@H]5CO[C@H]6[C@@H]5OC[C@H]6O)[nH]c4cc3F)cc2)cc1` gave an inhibition of 9% (PCP site; binding; 10 µM).
With `CNC(=O)C1CCCN(C(=O)C2CC3CCC2N3C(=O)[C@@H]2C[C@@H](O)CN2C(=O)NCc2cccc(Cl)c2F)C1` (mixture of isomers) the remaining activity was 99.7% (CYP3A4 (human); inhibitor, time-dependent inhibition; 0.617 µM, preincubated without NADPH, together with: midazolam substrate; relative to: negative control).
`O=C1NC(=O)c2c1c1cc(F)c[n+]3c1c1c2c2cc(O)ccc2[n]1[Ru-4]312([N]=C=S)[S+]3CC[S+]1CC[S+]2CC3` (stereo not drawn) gave a remaining activity of 6% (AKT3 (Homo sapiens, UniProt Q9Y243); enzyme activity; 100 nM, human enzyme, together with: 10 µM ATP; relative to: untreated).
With `CCN(CC)CCOc1ccc(-c2nnn(Cc3ccc(OC)cc3)c2N)cc1` the IC50 was > 50 µM (CYP2C19; inhibitor).
For `CC[C@H](C)[C@H](NC(=O)[C@H](Cc1ccccc1)NC(=O)[C@H](CCC(=O)O)NC(=O)[C@H](CCCCN)NC(=O)[C@H](C)NC(=O)[C@H](C)NC(=O)[C@H](CCC(N)=O)NC(=O)CNC(=O)[C@H](CCC(=O)O)NC(=O)[C@H](CC(C)C)NC(=O)[C@H](Cc1ccc(O)cc1)NC(=O)[C@H](CO)NC(=O)[C@H](CO)NC(=O)[C@@H](NC(=O)[C@H](CC(=O)O)NC(=O)[C@H](CO)NC(=O)[C@@H](NC(=O)[C@H](Cc1ccccc1)NC(=O)[C@@H](NC(=O)CNC(=O)N(CCC(=O)O)NC(=O)[C@H](C)NC(=O)N(N)Cc1c[nH]cn1)[C@@H](C)O)[C@@H](C)O)C(C)C)C(=O)N[C@@H](C)C(=O)N[C@@H](Cc1c[nH]c2ccccc12)C(=O)N[C@@H](CC(C)C)C(=O)N[C@H](C(=O)N[C@@H](CCCNC(=N)N)C(=O)NCC(=O)N[C@@H](CCCNC(=N)N)C(=O)NCC(=O)O)C(C)C`, the remaining peptide was 100% (DPP4; HPLC-UV; Tris-HCl; 0.1 mM, 1 h, pH 7.4, 37 °C, together with: DPP4 16 nM).
The remaining compound of `Cc1cc(-c2ccc3ccccc3c2)nnc1NCCN1CCN(C)CC1` is reported as 100% (Cytochrome P450 2A6 (CYP2A6, Homo sapiens, UniProt P11509); substrate; recombinant enzyme; 1000 nM, 30 min).
The total cholesterol of `O=C1NC2(CC2)COc2ncc(F)cc2[C@H]2COCCN2c2ccn3ncc1c3n2` is reported as 1.78 ± 0.38 mmol/L (Sprague-Dawley rat, female, serum; oral, 2.5 mg/kg/day, 4 weeks daily, end of recovery period).
For `C[C@@H](c1ccc2nccn2c1)n1nnc2nc(O)c(-c3cnn(C)c3)nc21`, the IC50 was 37 µM (human CYP3A4/5; inhibitor; pooled human liver microsomes; reversible inhibition, together with: testosterone substrate).
